Measurements pooled from the literature.
Compare with care: the assays were run in different laboratories. Several values in a cell are separate wells, animals, samples, runs or records. ± marks the error that the study gave.

CCCC[C@H](NC(=O)CN1CCC(NC(=O)CN2CCN(CC(=O)O)CCN(CC(=O)O)CCN(CC(=O)O)CC2)CC1)C(=O)N[C@H]1CC(=O)NCCCC[C@@H](C(N)=O)NC(=O)[C@H](Cc2c[nH]c3ccccc23)NC(=O)[C@H](CCCNC(=N)N)NC(=O)[C@@H](Cc2ccccc2)NC(=O)[C@H](Cc2c[nH]cn2)NC1=O [gallium-68 labelled]
tissue uptake (male C57BL/6J mice, B16-F10 tumours, liver; intravenous, 1 h, blocking study, together with: 100 µg non-radioactive Ga-peptide): 1.4 ± 0.6 %ID/g

CN1C(=O)[C@@H](Cc2ccc(O)c(I)c2)NC(=O)CNC(=O)[C@H](Cc2ccc3ccccc3c2)NC(=O)[C@H](CCCNC(=N)N)NC(=O)[C@H]1CCCNC(=O)c1ccc(CNC(=O)CN2CCN(CC(=O)O)CCN(CC(=O)O)CCN(CC(=O)O)CC2)cc1 [lutetium-177 labelled]
tissue uptake (refers to: 177Lu radioactivity; female CB-17 SCID mice, Daudi xenograft, skin; intravenous, 0.16 nmol per mouse, 96 h): 0.095 ± 0.008 %ID/g

CCCC[C@H](NC(=O)CNC(=O)CNC(=O)CN1CCN(CC(=O)O)CCN(CC(=O)O)CC1)C(=O)N[C@H]1CC(=O)NCCCC[C@@H](C(N)=O)NC(=O)[C@H](Cc2c[nH]c3ccccc23)NC(=O)[C@H](CCCNC(=N)N)NC(=O)[C@@H](Cc2ccccc2)NC(=O)[C@H](Cc2c[nH]cn2)NC1=O [gallium-67 labelled]
tissue uptake (female C57 mice, B16/F1 melanoma, spleen; intravenous, 0.037 MBq, 2 h): 0.67 ± 0.19 %ID/g

NC12CNCCNCC(NCc3ccc(CNC(=O)CCCC(=O)NCc4ccc(-c5nncnn5)cc4)cc3)(CNCCNC1)CNCCNC2.[64Cu+2]
tissue uptake (athymic nude mice SW1222 xenograft, tumor; 12 h post injection, 24 h accumulation interval, together with: huA33-TCO pretargeting): 6.74 %ID/g and 6.7 %ID/g

O=C([O-])c1cccc(CN(CCN(Cc2cn(Cc3ccccc3)nn2)Cc2cccc(C(=O)[O-])n2)Cc2cn(Cc3ccccc3)nn2)n1.[64Cu+2]
tissue uptake (healthy athymic nude mice, muscle; intravenous, 15 min): 1.27 %ID/g

O=C([O-])CN1CCN(CC(=O)[O-])CCN(CC(=O)NCCc2ccc3c(c2)C2C=CCC2C(c2cc4c(cc2Br)OCO4)N3)CCN(CC(=O)[O-])CC1.[111In+3] (centres unmarked)
tissue uptake (mice with Hec50 tumour xenograft, adrenals; 2 h, together with: G-1 5 µg blocking): 0.55 ± 0.14 %ID/g

O=C(NCC1OC2CCC=CCCC2O1)c1ccc(COCCOCCOCC[18F])cc1 (centres unmarked)
tissue uptake (female BALB/c nude mice, liver; intravenous, 15 min): 6.3 ± 0.2 %ID/g

CCCC[C@@H]1NC(=O)[C@@H](NC(=O)[C@H](CCC(=O)O)NC(=O)CNC(=O)CN2CCN(CC(=O)O)CCN(CC(=O)O)CCN(CC(=O)O)CC2)CCCCNC(=O)C[C@@H](C(N)=O)NC(=O)[C@H](C(C)C)NC(=O)[C@@H]2CCCN2C(=O)[C@H](CCCNC(=N)N)NC(=O)CNC(=O)[C@H](Cc2c[nH]c3ccccc23)NC(=O)[C@H](CCCNC(=N)N)NC(=O)[C@@H](Cc2ccccc2)NC(=O)[C@H](Cc2c[nH]cn2)NC(=O)[C@H](CCC(=O)O)NC1=O [gallium-67 labelled]
tissue uptake (C57 mice with B16/F1 melanoma, heart; intravenous, 0.5 h): 0.29 ± 0.1 %ID/g

CC(C)[C@H](NC(=O)[C@@H]1CCCN1C(=O)[C@H](CCCNC(=N)N)NC(=O)[C@H](CS)NC(=O)[C@H](Cc1c[nH]c2ccccc12)NC(=O)[C@H](CCCNC(=N)N)NC(=O)[C@@H](Cc1ccccc1)NC(=O)[C@H](Cc1c[nH]cn1)NC(=O)[C@H](CCC(=O)O)NC(=O)[C@H](CS)NC(=O)[C@H](CS)NC(=O)[C@@H]1CC(=O)N[C@@H](CCCNC(=N)N)C(=O)NCC(=O)N[C@@H](CC(=O)O)C(=O)N[C@H](Cc2ccc(O)cc2)C(=O)N1)C(N)=O [technetium-99m labelled]
tissue uptake (C57 mice B16/F1 melanoma female, intestines; iv, 0.037 MBq, 2 h): 1.76 ± 0.37 %ID

CCCC[C@H](NC(=O)CNC(=O)CNC(=O)CN1CCN(CC(=O)O)CCN(CC(=O)O)CCN(CC(=O)O)CC1)C(=O)N[C@H]1CC(=O)NCCCC[C@@H](C(N)=O)NC(=O)[C@H](Cc2c[nH]c3ccccc23)NC(=O)[C@H](CCCNC(=N)N)NC(=O)[C@@H](Cc2ccccc2)NC(=O)[C@H](Cc2c[nH]cn2)NC1=O [gallium-67 labelled]
tissue uptake (female C57 mice, B16/F1 melanoma, spleen; intravenous, 0.037 MBq, 0.5 h): 1.39 ± 0.13 %ID/g

N=C(N)NCCC[C@@H]1NC(=O)[C@H](CCCCNC(=O)CON=C[C@H](F)[C@@H](O)[C@H](O)[C@H](O)CO)NC(=O)[C@@H](Cc2ccc(O)cc2)NC(=O)[C@H](CC(=O)O)NC(=O)CNC1=O [fluorine-18 labelled]
tissue uptake (nude mice U-87 MG tumour, muscle; intravenous, 0.5 h): 0.3 ± 0.1 %ID/g

CC(C)[C@H](NC(=O)[C@@H]1CCCN1C(=O)[C@H](CCCNC(=N)N)NC(=O)[C@H](CS)NC(=O)[C@H](Cc1c[nH]c2ccccc12)NC(=O)[C@H](CCCNC(=N)N)NC(=O)[C@@H](Cc1ccccc1)NC(=O)[C@H](Cc1c[nH]cn1)NC(=O)[C@H](CCC(=O)O)NC(=O)[C@H](CS)NC(=O)[C@H](CS)NC(=O)CNC(=O)[C@@H]1CC(=O)N[C@@H](CCCNC(=N)N)C(=O)NCC(=O)N[C@@H](CC(=O)O)C(=O)N[C@H](Cc2ccc(O)cc2)C(=O)N1)C(N)=O [technetium-99m labelled]
tissue uptake (C57 mice B16/F1 melanoma female, kidneys; iv, 0.037 MBq, 0.5 h): 33.7 ± 12 %ID/g

O=C([O-])CN1CCN(CC(=O)[O-])CCN(CC(=O)[O-])CCN(CC(=O)[O-])CC1.[64Cu+2]
tissue uptake (healthy athymic nude mice, stomach; intravenous, 24 h): 0.35 %ID/g

O=C([O-])CN1CCN(CC(=O)[O-])CCN(CC(=O)NC[C@H]2CC[C@H](C(=O)N[C@H](Cc3cnc4ccccc4c3)C(=O)NCCCC[C@H](NC(=O)N[C@@H](CCC(=O)O)C(=O)O)C(=O)O)CC2)CCN(CC(=O)[O-])CC1.[64Cu+2]
tissue uptake (ex vivo gamma counting; 22Rv1 tumour-bearing mice, tumor; intravenous, 0.74 MBq, 1 h): 13.1 ± 4.12 %ID/g

Excerpt of the above:
CCCC[C@H](NC(=O)CNC(=O)CNC(=O)CN1CCN(CC(=O)O)CCN(CC(=O)O)CC1)C(=O)N[C@H]1CC(=O)NCCCC[C@@H](C(N)=O)NC(=O)[C@H](Cc2c[nH]c3ccccc23)NC(=O)[C@H](CCCNC(=N)N)NC(=O)[C@@H](Cc2ccccc2)NC(=O)[C@H](Cc2c[nH]cn2)NC1=O [gallium-67 labelled]
tissue uptake (female C57 mice, B16/F1 melanoma, spleen; intravenous, 0.037 MBq, 2 h): 0.67 ± 0.19 %ID/g
